Measurements pooled from the literature.
Protocols differ between the studies behind these lines.

SMILES	assay	test system	conditions	adverse event incidence [%]
FC(F)(F)c1ccc(CNc2ccc(Cc3c[nH]c4ncc(Cl)cc34)cn2)cn1	refers to: Dysgeusia	patients with advanced solid tumours	oral, dose not given, grade 1 and 2, possibly related to drug	26
Cc1ccc(Sc2ccccc2N2CCNCC2)c(C)c1	TEAE Acne	elderly men	oral, 10 mg single dose	12.5
NCCONC(=O)[C@@H]1CC[C@@H]2CN1C(=O)N2OS(=O)(=O)O	refers to: upper respiratory tract infection	healthy Chinese men	intravenous, 1 g, treatment-emergent	25
CC(=O)O[C@H]1C(=O)[C@@]2(C)[C@H]([C@H](OC(=O)c3ccccc3)[C@]3(O)C[C@H](OC(=O)[C@H](O)[C@@H](NC(=O)c4ccccc4)c4ccccc4)C(C)=C1C3(C)C)[C@]1(OC(C)=O)CO[C@@H]1C[C@@H]2O	refers to: peripheral neuropathy	patients with advanced solid tumours	intravenous, dose not given, grade 1 and 2, possibly related to drug	11
O=C1CCc2ccc(OCCCCN3CCN(c4cccc(Cl)c4Cl)CC3)cc2N1	refers to: Hypotension	patients, CYP2D6 normal metabolizers	dose not given, long-acting oral or depot	4.6
CCO[C@H]1CCN(Cc2c(OC)cc(C)c3[nH]ccc23)[C@H](c2ccc(C(=O)O)cc2)C1	refers to: abdominal distension	PNH patients with active haemolysis	oral, 200 mg, extension phase	0
CC(C)n1c(Nc2cccnc2)nc2cnc(Nc3ccc(N4CCN(C)CC4)cc3)nc21	refers to: Toothache	healthy male subjects	oral, 150 mg, with: rifampin	0
Cc1c(C(=O)O)ccc2c3n(nc12)[C@@H]1[C@H](C3)N(CC2CC2)[C@@]2(C(=O)Nc3cc(Cl)ccc32)[C@H]1c1cccc(Cl)c1F	phase Ia trial, refers to: Dizziness	cancer patients	oral, dose not given, all patients all grades	14.8
Cc1c(Cl)c(C)[n+]([O-])c(Cl)c1-c1noc(-c2cc(O)c(O)c([N+](=O)[O-])c2)n1	refers to: Severe severity	healthy Caucasian subjects	oral, 50 mg, 10 days	0
CC[C@H](C)CCCCC(=O)N[C@@H](CCN)C(=O)N[C@H](C(=O)N[C@@H](CCN)C(=O)N[C@H]1CCNC(=O)[C@H]([C@@H](C)O)NC(=O)[C@H](CCN)NC(=O)[C@H](CCN)NC(=O)[C@H](CC(C)C)NC(=O)[C@@H](Cc2ccccc2)NC(=O)[C@H](CCN)NC1=O)[C@@H](C)O	refers to: infections and infestations	long-term IHD patients	intravenous, 0.75 mg/kg	14.3
C[C@H]1[C@H]2N(C(=O)CN(C)N2C(=O)NCc2ccccc2)[C@@H](Cc2ccc(OP(=O)(O)O)cc2)C(=O)N1Cc1cccc2cccnc12	refers to: Enterocolitis	HIV/HCV haemophilia cirrhosis	concentration not given, phase I trial	20

Some of these lines once more:
SMILES	assay	test system	conditions	adverse event incidence [%]
O=C1CCc2ccc(OCCCCN3CCN(c4cccc(Cl)c4Cl)CC3)cc2N1	refers to: Hypotension	patients, CYP2D6 normal metabolizers	dose not given, long-acting oral or depot	4.6
